Experimental data collected from several papers.
Numbered parts are unrelated; each lists some results of a single study.

Study 1 — cell line: HEK-293T/ACE2; read-out: pseudovirus infection; organism: VSV pseudotyped with SARS-CoV-2 spike; concentration: 10 µM; time: 16 h; baseline: vehicle-treated
For C#CCN(C)Cc1ccccc1, the GFP-positive cells was 63.5%.
With CO[C@H]1/C=C/O[C@@]2(C)Oc3c(C)c(O)c4c(O)c(c(/C=N/N5CCN(C6CCCC6)CC5)c(O)c4c3C2=O)NC(=O)/C(C)=C\C=C\[C@H](C)[C@H](O)[C@@H](C)[C@@H](O)[C@@H](C)[C@H](OC(C)=O)[C@@H]1C the GFP-positive cells was 62.3%.
Nc1nc2c(ncn2CCC(CO)CO)c(=O)[nH]1 has a GFP-positive cells of 88.3%.
The GFP-positive cells of C#C[C@]1(O)CC[C@H]2[C@@H]3CCc4cc(OC)ccc4[C@H]3CC[C@@]21C is reported as 69.3%.

Study 2 — read-out: enzyme activity; action: inhibitor; concentration: 20 µM
Target: Replicase polyprotein 1ab, main protease (rep, Severe acute respiratory syndrome coronavirus 2, UniProt P0DTD1)
COc1ccc([N+](=O)[O-])c(S(=O)(=O)c2ccc(Cl)cc2)n1 gave an inhibition of -13.1%.
The inhibition of COc1ccnc(C[S+]([O-])c2nc3ccc(OC(F)F)cc3[nH]2)c1OC (centres unmarked) is reported as -9.16%.
CN1CC[C@@]2(C)c3cc(O)ccc3N(C)[C@@H]12 has an inhibition of -0.64%.

Study 3 — method: protein-binding microarray; form: double-stranded DNA, one strand shown; matrix: in vitro; concentration: 2200 nM top; notes: 60-bp whole probe; with: salmon DNA 0.4 mg/ml; baseline: random background probes; direction: higher = stronger binding; shared flanks, not repeated: GCCTAGCAC … GTCTTGATTCGCTTGACGCTGCTG
Target: Interferon regulatory factor 7, full length, phosphomimetic (IRF7, Homo sapiens, UniProt Q92985, residues 1-503, S471D/S472D/S475D/S476D/S477D/S483D/S484D/S487D)
Target sequence (chain): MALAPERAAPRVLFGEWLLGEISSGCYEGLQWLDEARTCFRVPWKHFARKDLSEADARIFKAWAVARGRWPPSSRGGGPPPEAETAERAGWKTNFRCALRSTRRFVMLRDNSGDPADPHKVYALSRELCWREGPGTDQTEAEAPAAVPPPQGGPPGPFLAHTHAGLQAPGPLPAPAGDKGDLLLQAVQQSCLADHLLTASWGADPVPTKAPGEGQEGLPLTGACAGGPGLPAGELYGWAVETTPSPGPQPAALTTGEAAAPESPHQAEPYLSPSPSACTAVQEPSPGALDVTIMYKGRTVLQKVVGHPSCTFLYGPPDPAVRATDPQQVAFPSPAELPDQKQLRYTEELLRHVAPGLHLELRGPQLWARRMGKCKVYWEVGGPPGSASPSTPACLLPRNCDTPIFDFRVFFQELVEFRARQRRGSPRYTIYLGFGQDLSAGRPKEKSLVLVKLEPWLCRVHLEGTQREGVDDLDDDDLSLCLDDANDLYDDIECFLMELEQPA
`GTTTCATTCCTGATCTCTGGGTGCTAG` — result for “fitted relative affinity”: 2.67 z-score.
`GACGGTTTCCTTTCCATGACGTGCTAG` — result for “fitted relative affinity”: 3.78 z-score.
For `CTGCGGTGAGTGCGTTATCGGTGCTAG`, “fitted relative affinity” read -0.271 z-score.
Under “fitted relative affinity”, `GACGATTTCGGAACTGGAGACGTGCTA` is recorded as 1.7 z-score.
For `TCAGGTCTCCTTTTCCTTTAGTGCTAG`, “fitted relative affinity” read 2.33 z-score.
`TCACATATATATATGAAACTGTGCTAG` — result for “fitted relative affinity”: 0.673 z-score.
`TTAGGTTTCTGGTATCGGTTAGTGCTA` — result for “fitted relative affinity”: 2.3 z-score.
Under “fitted relative affinity”, `GACGATCTCAGTCTCGTGACGTGCTAG` is recorded as 0.449 z-score.

Study 4 — method: RNA Bind-n-Seq; form: RNA; matrix: in vitro; concentration: 365 nM; baseline: no-protein control; direction: higher = stronger binding
Target: RNA binding protein fox-1 homolog 2, RRM domain, GST-SBP tag (RBFOX2, Homo sapiens, UniProt O43251-10, residues 100-194)
Notes: natural RNA segment, single round, ends assumed
Residues (chain): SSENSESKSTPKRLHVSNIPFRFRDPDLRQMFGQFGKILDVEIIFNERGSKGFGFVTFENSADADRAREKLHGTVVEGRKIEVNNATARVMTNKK
For `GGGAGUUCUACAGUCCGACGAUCGAGUGGCCAUUUCCUUACCUUUGAUCCCUGUAAAGCAGAAAGGACUCCUUUGACAGGCGACAAACUACUGUGGUGAGCAGAAUGAUUUCCUUUUUCAAGACAACACCUGCUGGAAUUCUCGGGUGCCAA`, “RBNS enrichment (R)” read 0.552.
Under “RBNS enrichment (R)”, `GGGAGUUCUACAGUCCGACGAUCGGUCCUACCUAAAUGUCCAGCAGGACAUUAGACAGUCGUACAGGGUACAGAAUAAUUCUUCGUUGUGUGGCACUAACCCACACACUGCAGGACAUCGUUCUCCCUGGCUGUGGAAUUCUCGGGUGCCAA` is recorded as 0.214.
`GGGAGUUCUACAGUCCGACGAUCGCCUCUUCUCAGAGUUCAGGAAAAACAGUAGUGCCACUUGAGACCUCGUAGAGGAGGUAUACGUGGCUGCCUUAGUAUUCUGUUCCUCAUGAUUAUUUUAGAAACUGGAUUGGAAUUCUCGGGUGCCAA` — result for “RBNS enrichment (R)”: 0.427.
`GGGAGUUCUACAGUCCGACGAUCUGGAUCUAUUUUAUGCAUGACCUUUUAACCUUUGACUUUGCUUAUUUCCCACUACGAAGGGGAAGGUAGAUUUUAUGAAUGAUUUUAAUAGCAAAUAUAUUUUAUAAAGUUGGAAUUCUCGGGUGCCAA`: “RBNS enrichment (R)” 8.87.
Under “RBNS enrichment (R)”, `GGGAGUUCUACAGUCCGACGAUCAAUAUGUUAAGAUCUAUGGAUAUUCUGUAGCAAGAGAAAAUAUCUUUGCCUUAACUCCACUGCUGUGGUUGUUCCUUGGACCUGACCGAUGCUCAUACAAUAAUCUCAAGUGGAAUUCUCGGGUGCCAA` is recorded as 0.82.
`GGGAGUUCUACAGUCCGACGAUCUUUACUCUCUGCCGUGGGUCUGCAGUCGCUGCAACCUACCCUCUCUCUGCCUCAGCCUUACACCCAAGCAGUAGGUCUGUGCUCUCCCUGUCUCUAGGUCGCUGAGAGAGUGGAAUUCUCGGGUGCCAA`: “RBNS enrichment (R)” 0.59.
For `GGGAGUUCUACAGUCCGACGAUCGAAUGACCAGGCCAGUGUUGUCACUGAGUGGUCCCCUGCUGGUUGGGAGUGAAGAGAAUCCAGGCUGGCAGAGCUGGAGCCAGUUGGGGAGCACGGUUCUGGGAGCUCUGUGGAAUUCUCGGGUGCCAA`, “RBNS enrichment (R)” read 1.57.
Under “RBNS enrichment (R)”, `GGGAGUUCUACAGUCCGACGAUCCUGGAAAGUAGAGGGAACCGGCACUGCUCAGAGCAGAUGGCGGCUUCUGGAGGCACACAGUGGGAGUACACCCCUUCAUGUUAUUGGCCAGUUGCUGGAGAAUGCUGUAGUGGAAUUCUCGGGUGCCAA` is recorded as 0.403.

Study 5 — method: protein binding microarray; form: double-stranded DNA, one strand shown; matrix: in vitro; concentration: not given; baseline: not given; direction: higher = stronger binding
Target: Histone acetyltransferase KAT6A, winged helix 1, GST fusion (KAT6A, Homo sapiens, UniProt Q92794, residues 1-85)
Notes: 8-mer, flanks averaged, mean of 2 arrays, mostly near background
Residues (chain): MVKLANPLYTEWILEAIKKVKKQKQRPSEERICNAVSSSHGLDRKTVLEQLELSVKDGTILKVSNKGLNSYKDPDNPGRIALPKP
`CCCAACAA` gave an E-score of -0.197.
`CAGCTGGC` gave an E-score of 0.0238.
`GGAGCGAC` has an E-score of 0.113.
`TACTATCA` has an E-score of 0.0145.
For `ATCGAGTG`, the E-score was -0.0893.
For `AAAGCATC`, the E-score was 0.128.
The E-score of `AATTGCGC` is reported as 0.356.
The E-score of `GAACCTGC` is reported as -0.155.

Study 6 — read-out: enzyme activity; action: inhibitor; concentration: 20 µM
Target: Replicase polyprotein 1ab, polymerase (rep, Severe acute respiratory syndrome coronavirus 2, UniProt P0DTD1)
For COc1ccc(C(C)=O)c(O)c1, the inhibition was -6.35%.
With FC(F)(F)c1ccc(N2CCNCC2)nc1Cl the inhibition was -4.92%.
COc1ccc(OC)c2c(=S)c3ccccc3[nH]c12 has an inhibition of 11.7%.
With COc1cc2c(NC3CCN(CC4CCCCC4)CC3)nc(N3CCCN(C(C)C)CC3)nc2cc1OCCCN1CCCCC1 the inhibition was -2.02%.
O=C(/C=C/c1ccc(O)c(O)c1)OCCc1ccccc1 gave an inhibition of -1.75%.
NC(=O)c1ccc(-c2nc(-c3ccc4c(c3)OCCO4)c(-c3ccccn3)[nH]2)cc1 gave an inhibition of 4.08%.
N=C(N)c1ccc(N2CCN(C3CCN(CC(=O)O)CC3)CC2)cc1 gave an inhibition of -2.58%.
The inhibition of C=CCNC(=O)c1cc([N+](=O)[O-])cc2c(=O)[nH]c(Nc3ccc(Cl)c(Cl)c3)nc12 is reported as 44.8%.
The inhibition of O=C1C[C@@H]2OCC=C3CN4CC[C@]56c7ccccc7N1[C@H]5[C@H]2[C@H]3C[C@H]46 is reported as -1.74%.
Cc1ccc2cc(-c3c(C)ccc(C(=O)c4c(-c5ccccc5)n(C)n(-c5ccccc5)c4=O)c3N)ccc2n1 gave an inhibition of -5.99%.
CCOC(=O)CNC(=O)[C@@H]1CCCN1C(=O)Cc1ccccc1 gave an inhibition of -2.7%.
With CCN(CC)C(=O)N1CCN(C)CC1 the inhibition was 2.15%.
O=C(O)/C=C/c1ccc(O)c(O)c1 has an inhibition of 5.69%.
For O=C(O)[C@H]1O[C@@H](Oc2cc3oc(-c4ccccc4)cc(=O)c3c(O)c2O)[C@H](O)[C@@H](O)[C@@H]1O, the inhibition was 25.6%.
The inhibition of OC(c1ccccc1)(c1ccccc1)C12CC[N+](CCOCc3ccccc3)(CC1)CC2 is reported as 3.76%.
For CN1CCN(CCCN2c3ccccc3Sc3ccc(C(F)(F)F)cc32)CC1, the inhibition was -1.47%.
O=S(=O)(c1ccccc1)c1cnc2c(N3CCNCC3)cccc2c1 has an inhibition of -14.1%.
With Cc1ccc(-n2sc(=O)n(Cc3ccc(F)cc3)c2=O)cc1 the inhibition was -1.91%.
For O=S(=O)(c1ccccc1F)N1CCOc2c(N3CCNCC3)cccc21, the inhibition was 7.6%.
Cc1ccc2c(c1CCC(=O)O)CC[C@@H](NS(=O)(=O)c1ccc(Cl)cc1)C2 gave an inhibition of 1.17%.
For CC(C)=CCOc1ccc(/C=C/C(=O)c2ccc(OCC=C(C)C)cc2OCC(=O)O)cc1, the inhibition was 5.54%.
For CNCc1cc(-c2ccccc2F)n(S(=O)(=O)c2cccnc2)c1, the inhibition was -4.34%.
The inhibition of CC(=O)Nc1c(I)c(C(=O)O)c(I)c(N(C)C(C)=O)c1I is reported as -3.25%.
The inhibition of O=C(O)CCC(=O)Nc1ccc(S(=O)(=O)Nc2nccs2)cc1 is reported as 11.1%.
The inhibition of COc1cc2nc(N3CCN(C(=O)c4ccco4)CC3)nc(N)c2cc1OC is reported as 11.1%.

Repeated from above (study 6):
The inhibition of C=CCNC(=O)c1cc([N+](=O)[O-])cc2c(=O)[nH]c(Nc3ccc(Cl)c(Cl)c3)nc12 is reported as 44.8%.
The inhibition of O=C1C[C@@H]2OCC=C3CN4CC[C@]56c7ccccc7N1[C@H]5[C@H]2[C@H]3C[C@H]46 is reported as -1.74%.
Cc1ccc2cc(-c3c(C)ccc(C(=O)c4c(-c5ccccc5)n(C)n(-c5ccccc5)c4=O)c3N)ccc2n1 gave an inhibition of -5.99%.
CCOC(=O)CNC(=O)[C@@H]1CCCN1C(=O)Cc1ccccc1 gave an inhibition of -2.7%.
With CCN(CC)C(=O)N1CCN(C)CC1 the inhibition was 2.15%.
O=C(O)/C=C/c1ccc(O)c(O)c1 has an inhibition of 5.69%.
For O=C(O)[C@H]1O[C@@H](Oc2cc3oc(-c4ccccc4)cc(=O)c3c(O)c2O)[C@H](O)[C@@H](O)[C@@H]1O, the inhibition was 25.6%.
